# Experimental data gathered from unrelated publications.
# ± marks the error that the study gave. Ends that are not written are not given here.
# B1: enzyme (Bacillus pumilus, UniProt A8FFI9); chain EARSIAWSVDEFFKNREGTFVIQEVKEKSPWVYNKKRAKERFAPQSTFKVANALIGLQTGAVRDEYDIKYWDGVKREIDNWNRDHTLGSGMRDSVVWYYQAMARDIGEERMNHWVKAIHYGNKDISGGIDQFWLSSTLRISPIEQVRFLKQLYEETLPFDLKNMRTVKRMMVQEEEKHATLYGKTGSGSDIGWYVGFIKHEHKTYILATNIKGTGIEAKDITYRILKKYHLMEASV
# B2: spoVID 501-575 (Bacillus subtilis, UniProt P37963); sequence looked up; chain ESDNSLYLTKLFTKEADEFSRMKICIVQQEDTIERLCERYEITSQQLIRMNSLALDDELKAGQILYIPQYKNSHA
# B3: UGT1A9 (Homo sapiens, UniProt O60656); chain GKLLVVPMDGSHWFTMRSVVEKLILRGHEVVVVMPEVSWQLGRSLNCTVKTYSTSYTLEDLDREFKAFAHAQWKAQVRSIYSLLMGSYNDIFDLFFSNCRSLFKDKKLVEYLKESSFDAVFLDPFDNCGLIVAKYFSLPSVVFARGILCHYLEEGAQCPAPLSYVPRILLGFSDAMTFKERVRNHIMHLEEHLLCHRFFKNALEIASEILQTPVTEYDLYSHTSIWLLRTDFVLDYPKPVMPNMIFIGGINCHQGKPLPMEFEAYINASGEHGIVVFSLGSMVSEIPEKKAMAIADALGKIPQTVLWRYTGTRPSNLANNTILVKWLPQNDLLGHPMTRAFITHAGSHGVYESICNGVPMVMMPLFGDQMDNAKRMETKGAGVTLNVLEMTSEDLENALKAVINDKSYKENIMRLSSLHKDRPVEPLDLAVFWVEFVMRHKGAPHLRPAAHDLTWYQYHSLDVIGFLLAVVLTVAFITFKCCAYGYRKCLGKKGRVKKAHKSKTH
# B4: mel-26 (Caenorhabditis elegans, UniProt Q94420); sequence looked up; chain MEPRIDGGVFIGGIGNSGNEMCSNGVPALGVSSQTEIKVEKVQHTWTVKNFSHCYQEYLENFVYLQRGDEQLTWSIKIYPKGNGENNKDFVFLCLNRVINNNVKAGKIGFKSQFKLRTAENKDIEMRIHPNPSHSDYVSYIKRDVLFPQIMPRDMIIVNVEIDVAVETITTTNEPIQFEPTNSEQQLIEDYQRLFSQELLCDFAINVNGKIIRAHKAVLAARSPVFNAMLTHQDTDEAKSSMMYINDMDYDVIYEMVYYIYCGRCNKDITDMATALLIAADKYRLEELKSHCEKYLVENINIENACSLLIIGDLYSAPKLRKRAVTYILARPKNVTGTPGWEDILKGHPNLITDIFSQIDRQSSTGATSSVSNLPGVPMDIPGITGNIVPPPSGL
# B5: FGF6 (Homo sapiens, UniProt P10767); chain SPAGTRANNTLLDSRGWGTLLSRSRAGLAGEIAGVNWESGYLVGIKRQRRLYCNVGIGFHLQVLPDGRISGTHEENPYSLLEISTVERGVVSLFGVRSALFVAMNSKGRLYATPSFQEECKFRETLLPNNYNAYESDLYQGTYIALSKYGRVKRGSKVSPIMTVTHFLPRI
# UniProt Q8IX90, sequence (whole entry, looked up): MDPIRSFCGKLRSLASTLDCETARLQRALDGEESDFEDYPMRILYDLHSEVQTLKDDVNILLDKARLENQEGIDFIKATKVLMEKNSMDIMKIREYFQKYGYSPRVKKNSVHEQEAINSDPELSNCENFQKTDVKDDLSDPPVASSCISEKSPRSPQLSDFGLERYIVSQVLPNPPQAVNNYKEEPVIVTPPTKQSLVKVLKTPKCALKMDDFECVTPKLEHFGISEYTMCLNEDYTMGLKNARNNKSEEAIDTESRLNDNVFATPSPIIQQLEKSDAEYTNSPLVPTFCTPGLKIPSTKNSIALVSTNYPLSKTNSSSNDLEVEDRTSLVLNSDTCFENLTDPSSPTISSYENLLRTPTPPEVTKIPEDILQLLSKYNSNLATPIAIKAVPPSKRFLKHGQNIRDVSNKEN
# UniProt P34808, sequence (whole entry, unmodified, looked up): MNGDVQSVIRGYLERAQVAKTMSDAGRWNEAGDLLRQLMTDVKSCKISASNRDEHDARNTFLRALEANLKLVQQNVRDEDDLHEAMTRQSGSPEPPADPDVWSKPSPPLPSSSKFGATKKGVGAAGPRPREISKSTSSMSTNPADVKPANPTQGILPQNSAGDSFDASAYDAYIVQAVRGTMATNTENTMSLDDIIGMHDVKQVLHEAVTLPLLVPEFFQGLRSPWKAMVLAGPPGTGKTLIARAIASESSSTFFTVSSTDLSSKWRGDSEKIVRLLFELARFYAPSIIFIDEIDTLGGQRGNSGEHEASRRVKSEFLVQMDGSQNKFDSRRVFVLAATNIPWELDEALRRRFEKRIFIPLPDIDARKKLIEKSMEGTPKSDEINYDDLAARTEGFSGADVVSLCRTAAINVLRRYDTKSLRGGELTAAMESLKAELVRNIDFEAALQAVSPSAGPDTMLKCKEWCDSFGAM
# UniProt P46873, sequence (whole entry, looked up): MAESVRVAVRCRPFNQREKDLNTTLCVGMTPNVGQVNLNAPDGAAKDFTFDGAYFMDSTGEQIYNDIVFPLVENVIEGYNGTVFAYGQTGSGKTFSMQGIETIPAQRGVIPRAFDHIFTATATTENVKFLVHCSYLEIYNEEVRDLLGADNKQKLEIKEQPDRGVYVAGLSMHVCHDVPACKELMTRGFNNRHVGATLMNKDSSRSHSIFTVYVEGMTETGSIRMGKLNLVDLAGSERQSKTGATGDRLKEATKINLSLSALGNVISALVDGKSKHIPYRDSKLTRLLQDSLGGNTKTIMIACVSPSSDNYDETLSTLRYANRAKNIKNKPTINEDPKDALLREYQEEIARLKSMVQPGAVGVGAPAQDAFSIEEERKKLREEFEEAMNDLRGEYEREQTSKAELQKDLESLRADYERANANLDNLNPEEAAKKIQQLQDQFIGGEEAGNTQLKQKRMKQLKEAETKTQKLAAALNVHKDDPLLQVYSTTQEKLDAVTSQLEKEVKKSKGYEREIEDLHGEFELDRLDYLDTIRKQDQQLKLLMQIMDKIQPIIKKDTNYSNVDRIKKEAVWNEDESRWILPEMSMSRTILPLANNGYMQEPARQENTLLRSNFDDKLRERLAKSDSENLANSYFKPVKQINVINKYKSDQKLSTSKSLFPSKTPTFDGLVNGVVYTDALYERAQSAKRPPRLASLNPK
# UniProt Q8SPP9, sequence (whole entry, looked up): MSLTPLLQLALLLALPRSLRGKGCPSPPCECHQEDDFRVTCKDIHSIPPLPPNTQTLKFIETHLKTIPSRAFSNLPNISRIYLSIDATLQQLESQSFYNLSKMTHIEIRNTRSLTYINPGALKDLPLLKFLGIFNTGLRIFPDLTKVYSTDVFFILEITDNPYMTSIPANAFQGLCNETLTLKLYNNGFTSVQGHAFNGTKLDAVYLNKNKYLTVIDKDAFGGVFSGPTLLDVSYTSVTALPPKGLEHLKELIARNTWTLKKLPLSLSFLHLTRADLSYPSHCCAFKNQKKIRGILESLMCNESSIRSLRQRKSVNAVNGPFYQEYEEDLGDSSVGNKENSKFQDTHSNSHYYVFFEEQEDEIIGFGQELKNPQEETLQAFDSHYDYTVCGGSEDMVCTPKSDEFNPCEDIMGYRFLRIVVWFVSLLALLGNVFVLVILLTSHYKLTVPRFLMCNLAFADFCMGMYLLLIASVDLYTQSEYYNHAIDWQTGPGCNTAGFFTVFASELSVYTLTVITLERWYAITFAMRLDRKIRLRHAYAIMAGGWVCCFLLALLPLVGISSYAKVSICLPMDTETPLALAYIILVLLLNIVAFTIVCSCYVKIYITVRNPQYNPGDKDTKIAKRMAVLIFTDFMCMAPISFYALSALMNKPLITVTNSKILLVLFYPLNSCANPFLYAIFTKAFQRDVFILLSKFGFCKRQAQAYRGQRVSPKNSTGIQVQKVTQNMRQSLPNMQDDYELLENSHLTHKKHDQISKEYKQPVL
# UniProt P70618, sequence (whole entry, looked up): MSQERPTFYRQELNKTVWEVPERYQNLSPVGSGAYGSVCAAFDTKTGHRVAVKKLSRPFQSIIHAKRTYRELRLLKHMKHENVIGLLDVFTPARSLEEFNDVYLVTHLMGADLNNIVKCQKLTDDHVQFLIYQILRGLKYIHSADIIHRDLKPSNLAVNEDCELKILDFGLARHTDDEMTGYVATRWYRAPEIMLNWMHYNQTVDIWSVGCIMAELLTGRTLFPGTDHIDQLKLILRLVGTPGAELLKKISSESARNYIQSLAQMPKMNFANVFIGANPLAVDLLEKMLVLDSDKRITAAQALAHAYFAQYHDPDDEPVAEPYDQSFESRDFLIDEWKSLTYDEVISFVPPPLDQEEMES
# UniProt P31266, sequence (whole entry, unmodified, looked up): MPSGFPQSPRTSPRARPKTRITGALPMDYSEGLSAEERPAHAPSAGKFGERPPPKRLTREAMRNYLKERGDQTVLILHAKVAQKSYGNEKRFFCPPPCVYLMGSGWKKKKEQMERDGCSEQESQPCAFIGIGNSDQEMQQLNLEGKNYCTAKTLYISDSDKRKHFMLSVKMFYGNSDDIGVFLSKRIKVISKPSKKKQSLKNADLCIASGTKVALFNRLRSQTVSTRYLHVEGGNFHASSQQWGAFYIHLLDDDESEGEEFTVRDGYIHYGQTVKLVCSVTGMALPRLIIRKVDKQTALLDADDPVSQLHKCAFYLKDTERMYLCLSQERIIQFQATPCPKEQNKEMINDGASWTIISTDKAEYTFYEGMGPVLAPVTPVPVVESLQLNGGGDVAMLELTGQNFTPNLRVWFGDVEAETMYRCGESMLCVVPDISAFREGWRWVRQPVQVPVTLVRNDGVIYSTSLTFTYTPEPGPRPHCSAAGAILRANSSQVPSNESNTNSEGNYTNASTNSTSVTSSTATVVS
# UniProt P35149, sequence (whole entry, looked up): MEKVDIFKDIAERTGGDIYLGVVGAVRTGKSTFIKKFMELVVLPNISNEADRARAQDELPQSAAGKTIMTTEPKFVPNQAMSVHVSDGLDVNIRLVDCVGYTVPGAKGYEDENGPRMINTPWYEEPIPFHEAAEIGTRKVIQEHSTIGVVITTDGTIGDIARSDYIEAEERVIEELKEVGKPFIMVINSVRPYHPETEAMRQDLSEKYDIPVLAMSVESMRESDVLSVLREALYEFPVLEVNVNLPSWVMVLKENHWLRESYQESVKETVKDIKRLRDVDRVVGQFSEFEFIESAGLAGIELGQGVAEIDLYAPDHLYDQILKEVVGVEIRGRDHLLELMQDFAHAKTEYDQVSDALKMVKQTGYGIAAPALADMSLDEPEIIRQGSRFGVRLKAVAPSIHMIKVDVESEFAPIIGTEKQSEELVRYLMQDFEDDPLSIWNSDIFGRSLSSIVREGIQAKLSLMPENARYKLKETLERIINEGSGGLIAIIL
# UniProt P0A6A8, sequence (whole entry, looked up): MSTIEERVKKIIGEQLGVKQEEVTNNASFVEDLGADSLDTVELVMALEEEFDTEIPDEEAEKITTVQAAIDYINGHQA
# UniProt Q61851, sequence (whole entry, looked up): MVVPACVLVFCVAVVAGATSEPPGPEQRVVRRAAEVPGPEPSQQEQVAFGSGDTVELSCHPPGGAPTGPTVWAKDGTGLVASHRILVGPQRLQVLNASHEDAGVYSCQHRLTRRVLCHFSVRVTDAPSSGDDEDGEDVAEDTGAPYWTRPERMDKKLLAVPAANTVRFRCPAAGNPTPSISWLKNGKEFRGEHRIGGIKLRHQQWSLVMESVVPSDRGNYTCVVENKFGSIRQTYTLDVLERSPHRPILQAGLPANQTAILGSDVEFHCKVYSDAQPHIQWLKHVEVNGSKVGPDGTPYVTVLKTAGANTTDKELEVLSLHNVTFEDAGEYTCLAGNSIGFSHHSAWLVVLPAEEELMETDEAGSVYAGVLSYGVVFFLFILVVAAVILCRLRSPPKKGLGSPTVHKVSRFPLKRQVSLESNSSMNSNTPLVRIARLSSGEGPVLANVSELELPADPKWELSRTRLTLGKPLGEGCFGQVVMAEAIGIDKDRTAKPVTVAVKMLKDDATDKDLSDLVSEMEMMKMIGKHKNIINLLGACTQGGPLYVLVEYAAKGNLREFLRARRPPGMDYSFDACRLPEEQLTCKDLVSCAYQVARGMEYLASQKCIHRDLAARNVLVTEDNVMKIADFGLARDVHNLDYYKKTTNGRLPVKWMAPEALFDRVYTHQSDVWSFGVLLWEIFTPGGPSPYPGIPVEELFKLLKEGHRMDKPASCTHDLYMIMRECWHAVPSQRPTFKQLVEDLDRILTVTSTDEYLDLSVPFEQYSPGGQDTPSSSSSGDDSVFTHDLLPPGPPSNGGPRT
Molecule,tested on,assay,system,conditions,how to read,endpoint,value
B1 (enzyme),CO/N=C(\C(=O)N[C@@H]1C(=O)N2C(C(=O)O)=C(COC(C)=O)CS[C@H]12)c1csc(N)n1,steady-state kinetics,,pH 7,,kcat/Km,7200 ± 1000 M⁻¹ s⁻¹
"KCNTATCATQRLANFLVHSSNNFGPILPPTNVGSNTY (Pramlintide; not fully specified (C-terminus, bridges); cysteine pairing not given here; sequence looked up)",,,"peptide, obese or overweight humans",dose not given,,injection site adverse events,44.6%
B2 (spoVID 501-575),"spoIVA (Bacillus subtilis, UniProt P35149)",pull-down,,with: ATP 4 mM,"relative to: unpolymerized SpoIVA without ATP, higher = more bound",relative binding,7 fold
MMP2 fragment F297A/R368A (Homo sapiens),"COL1A1/COL1A2 denatured, gelatin (Homo sapiens)",DQ-gelatin fluorescence,,"10 nM, 25 °C",higher = faster hydrolysis,hydrolysis rate,0.1 RFU/s
"MENVKKATAATTWMVPTAQ (L3MBTL3 52-70 T61A (Homo sapiens, UniProt Q96JM7-2); sequence looked up)","Rbpj 53-474 (Mus musculus, UniProt P31266)",ITC,peptide,"pH 6.5, 25 °C, NaCl 150 mM",,ΔH,-11.4 kcal/mol
fabF K65A/K69A (Escherichia coli),"acpP C12-acylated 1-78, C12 acyl on 4'-phosphopantetheine (Escherichia coli, UniProt P0A6A8)","holo-AcpP formation, HPLC",,"10 µM, with: malonyl-CoA",,condensation rate,0.59 min⁻¹
YAKRKRKKREKLILTL (WDR3 D-site peptide (Homo sapiens)),"Mapk14, pT180, pY182 (Rattus norvegicus, UniProt P70618)","kinase activity, inhibitor, competitive kinase inhibition assay",peptide,with: ATP 1 mM,,IC50,0.3 µM
SIYNFEKL,OT-I CD8+ T cells,,peptide,"concentration not given, primed 5 d, OVA257 100 ng/mL restimulation, with: 20 ng/mL TGF-beta1 from day 2",,IL-2+ cells,75.6%
"SKA3 (Homo sapiens, UniProt Q8IX90)",SKA1/SKA2 (Homo sapiens),SEC,,,,molecule per partner,1
"TFPI endogenous, on cells (Homo sapiens, UniProt P10646)",F10 factor Xa,factor Xa inhibition,HUVEC,"100 µg/mL total protein, initial, α-cyclodextrin",,free factor Xa,0.098 nM
B3 (UGT1A9),COc1ccc2c(=O)c(O)c(-c3ccccc3)oc2c1,steady-state kinetics,,"pH 7.4, 37 °C",,Vmax/Km,37000 µL/min/mg
TKAARKS (acetyl-Lys27),"Protein AF-9, YEATS domain (Homo sapiens, UniProt P42568)","binding, isothermal titration calorimetry",,with: acetylated histone peptides,,Kd,7 µM
B4 (mel-26),"mei-1 S90A, phosphorylated by MBK-2 (Caenorhabditis elegans, UniProt P34808)",far-Western,,"4 °C, denatured",,binding,binds
B5 (FGF6),"FGFR3 isoform IIIc (unknown, UniProt Q61851)","cell proliferation, MTT",BaF3-FGFR3c,"20 nM, 48 h, with: chondroitin sulfate B 4.9 µg/mL","relative to: FGF 1 with heparin, higher = more proliferation",cell proliferation,17%
dyf-1/osm-5 (Caenorhabditis elegans),"osm-3 (Caenorhabditis elegans, UniProt P46873)",single-molecule transport,,,,velocity,1.2 µm/s
"CGA/TSHB, 125I label (Bos taurus)","TSHR (Sus scrofa, UniProt Q8SPP9)",radioligand binding,solubilized porcine thyroid membrane,,"relative to: normal pooled IgG, higher = more bound tracer",PEG-precipitable radioactivity,7930 cpm
SIIVFEKL,OT-I CD8+ T cells,,peptide,"concentration not given, primed 5 d, OVA257 100 ng/mL restimulation, with: no TGF-beta1",,TNF-alpha+ cells,72.3%
CLSTAADMQGVVTDGMASGLDKDYLKPDD (azu residues 50-77),TP63 DBD 127-323 (Homo sapiens),atomic force spectroscopy,peptide,"pH 7.5, NaCl 150 mM",,koff,0.014 s⁻¹

# Repeated from above:
Molecule,tested on,assay,system,conditions,how to read,endpoint,value
"TFPI endogenous, on cells (Homo sapiens, UniProt P10646)",F10 factor Xa,factor Xa inhibition,HUVEC,"100 µg/mL total protein, initial, α-cyclodextrin",,free factor Xa,0.098 nM
B3 (UGT1A9),COc1ccc2c(=O)c(O)c(-c3ccccc3)oc2c1,steady-state kinetics,,"pH 7.4, 37 °C",,Vmax/Km,37000 µL/min/mg
TKAARKS (acetyl-Lys27),"Protein AF-9, YEATS domain (Homo sapiens, UniProt P42568)","binding, isothermal titration calorimetry",,with: acetylated histone peptides,,Kd,7 µM
